Assay results of several laboratories.
Numbered parts are unrelated; each lists some results of a single study. Substitutions count along the parent as printed.

Set 1 — method: protein binding microarray; molecule type: double-stranded DNA, one strand shown; matrix: in vitro; concentration: not given; reference: not given; reading: higher = stronger binding
Target: Histone acetyltransferase KAT6A, both winged helices, GST fusion (KAT6A, Homo sapiens, UniProt Q92794, residues 1-181)
Setting: 8-mer, flanks averaged, mean of 2 arrays, mostly near background
Residues (chain): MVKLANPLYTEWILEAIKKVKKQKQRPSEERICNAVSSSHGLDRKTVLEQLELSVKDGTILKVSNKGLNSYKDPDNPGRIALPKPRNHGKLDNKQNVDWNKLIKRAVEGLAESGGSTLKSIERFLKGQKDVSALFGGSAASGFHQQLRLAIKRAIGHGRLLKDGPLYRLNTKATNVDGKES
Strand	E-score
ATTCTTTC	-0.155
CGTGTTCA	0.198
AAATGGCG	0.109
CTCTGTGA	-0.19
AATGCATG	-0.106
ACGCACGA	0.13
AAGTGATT	-0.177
ACGATCAG	-0.0981
CCATGGCC	-0.121
CGTAAATC	0.16
CTCGATTC	-0.0197
CTCACCCA	-0.257
AGCGACAA	-0.0996
AGACCAAC	-0.238
GGCGTGTA	0.0334
ATTGGTAC	-0.0757
ACACTGTC	0.0351
CAATGTCC	-0.0655
AGTTCAAA	-0.0958
ACTTCTAT	-0.291
CACTGCGA	0.158
ACAACTAG	-0.0637
GCTTCCCA	0.104
GGATAAGA	0.0888
GAAGTGGA	0.018

Set 2 — target: CCNB1, cyclin fold, Cln2 fusion (human); method: yeast growth competition, sequencing; matrix: yeast; setting: weak parent motif; reference: not given; reading: higher = stronger binding
Starting sequence: WEE1 docking peptide (human); CTLRQKLIFSPCS
Variant	normalised enrichment score
CTARQKLIFSPCS [L3A]	0.747
CTLRQKLIFSACS [P11A]	0.258
CTLRQKLIFSPCA [S13A]	0.518
CTLAQKLIFSPCS [R4A]	0.441
CTLRQALIFSPCS [K6A]	0.149
CTLRQKLAFSPCS [I8A]	0.532
CALRQKLIFSPCS [T2A]	0.539

Set 3 — method: protein-binding microarray; molecule type: double-stranded DNA, one strand shown; matrix: in vitro; concentration: 250 nM; setting: 60-bp whole probe; together with: salmon DNA 0.4 mg/ml; reference: random background probes; reading: higher = stronger binding; constant ends, left off below: GCCTAGCAC … GTCTTGATTCGCTTGACGCTGCTG
Target: Interferon regulatory factor 7, full length, phosphomimetic (IRF7, Homo sapiens, UniProt Q92985, residues 1-503, S101K/S471D/S472D/S475D/S476D/S477D/S483D/S484D/S487D)
UniProt Q92985, sequence (whole entry, unmodified, looked up): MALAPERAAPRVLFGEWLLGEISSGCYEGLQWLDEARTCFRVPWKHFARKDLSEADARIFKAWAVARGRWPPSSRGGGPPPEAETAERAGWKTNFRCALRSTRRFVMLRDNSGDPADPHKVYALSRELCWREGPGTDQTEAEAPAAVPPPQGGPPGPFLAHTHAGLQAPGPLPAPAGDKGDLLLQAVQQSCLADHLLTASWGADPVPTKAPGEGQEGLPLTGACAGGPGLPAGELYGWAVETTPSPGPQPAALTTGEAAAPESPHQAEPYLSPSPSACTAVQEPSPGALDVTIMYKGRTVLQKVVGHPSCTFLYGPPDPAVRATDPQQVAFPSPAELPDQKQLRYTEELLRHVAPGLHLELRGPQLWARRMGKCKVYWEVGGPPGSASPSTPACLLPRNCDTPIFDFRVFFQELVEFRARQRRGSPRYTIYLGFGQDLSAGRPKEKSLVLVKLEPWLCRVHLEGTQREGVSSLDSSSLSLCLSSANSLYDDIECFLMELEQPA
Strand	log fluorescence [z-score]
GACGATCTGAGTATCGAGACGTGCTAG	0.105
GACGATTTCGGGACAGGAGACGTGCTA	0.23
GACGGTTTCGGTTCCGGGAGGTGCTAG	13
TTAGGACTGGACTTTCGGTGAGTGCTA	-0.543
TTAGGTATCGATCTCGGTTAGTGCTAG	1.59
GACGAACTGAGTTGCGAGACGTGCTAG	-0.57
GACGATATCGGGTAGCGAGACGTGCTA	-0.537
TTAGGTATCGACTACCGGTTAGTGCTA	0.348
GACGATCTCAAACTGGAGACGTGCTAG	-0.09
TTAGGTTTCTACTATCGGTTAGTGCTA	1.82
TATCCTATCAGTTTAATATCGTGCTAG	1.11

Set 4 — method: DHFR PCA, deep sequencing; matrix: yeast; together with: (+)-ABA 1.4 µM; reference: wild-type fitted maximum; reading: higher = stronger binding
Target: ABI1, truncated, D143A, DHFR fusion (Arabidopsis thaliana)
Setting: methotrexate growth selection, single substitutions
Starting sequence: PYL1, truncated, DHFR fusion (Arabidopsis thaliana); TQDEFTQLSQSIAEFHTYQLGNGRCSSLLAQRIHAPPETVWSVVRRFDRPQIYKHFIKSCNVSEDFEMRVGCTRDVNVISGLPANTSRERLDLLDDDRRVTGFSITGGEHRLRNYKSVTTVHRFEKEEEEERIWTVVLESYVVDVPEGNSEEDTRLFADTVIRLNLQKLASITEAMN
Variant	relative binding score [%]
D159K	-16.5
E151I	41.3
Y18Q	15.1
E64K	60
I12H	22.6
V76D	-2.59
Y141G	-4.26
S80Q	-3.23
G107S	24.4
S104I	1.77
E109N	66.4
Q2V	74.5
R111K	23.1
V161C	39.1
Q51V	-0.553
M68E	-1.48

Set 5 — method: RNA Bind-n-Seq; molecule type: RNA; matrix: in vitro; concentration: 365 nM; reference: no-protein control; reading: higher = stronger binding
Target: RNA binding protein fox-1 homolog 2, RRM domain, GST-SBP tag (RBFOX2, Homo sapiens, UniProt O43251-10, residues 100-194)
Setting: natural RNA segment, single round, ends assumed
Constant ends, left off below: GGGAGUUCUACAGUCCGACGAUC … UGGAAUUCUCGGGUGCCAA
Residues (chain): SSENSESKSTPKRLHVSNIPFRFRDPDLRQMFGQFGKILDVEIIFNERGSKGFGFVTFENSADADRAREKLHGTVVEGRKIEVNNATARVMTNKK
Strand	RBNS enrichment (R)
UUGCCGUCUGGACCAUUGAUUGAUUGUGACCAGUAGCAGAAGGGUGCCUGUUACAUAGAGAGGCUCCUUCUGUCCAAAUGAAUUUCUGUAUACUCUUCUAUAAAUAAAAG	0.543
CAGAGCAGCUUGUUUCAGAUAGAAAUUCUCUAUGGGUUGAAAUGCCAAAAACAGAAAACAUGAUGUUGACUCAUGUAAUUUAGUCCAUUUUAGCAGAGCCUUUAGUGUUA	0.572
AUAUAGCUACCUGUCUAGAUCUGCAUCUGUGUGCCUAUGUAUAUAUUAUACACACACAGAGGCACUCACCGCUGGCUCUCCUUUCCUUGGGGAUUGGGGUGGGGGUGAUA	0.258
GAGGCCCCGGCACAGCCCUGCAGAGAUGCAAGUAAGAGAGUGCCCAGUGCCCUCGGCAGAUGGGUGGCAGAAAGCAGGAGGAGGAAGAGGGAGCUGACCGAUGCCGGGUG	0.568
UGGCGUACAGUGGUACGAUCUCAGCUCACUGCAUCCUCUGCCUCCCCCAGUUCAAGUGAUUCUUCUGCCUCGGCCUCCUGAGUAACUGGGACUACAGGCGCCUACCACCA	1.29
ACGUGUAAAUAAGAACACACAUAGUUAACUAAAGAACCAGGCAGUCCCCUGCUUAACUGCAGCCUGGAUAGCUGAGCUGCUGCUGAGGGCACGCCGUGCGCGACGGCUGA	0.322
UUGUAGCAGCUAUAUAUUUCCCCUUGGUCCCAAGCCUGAUACUUUAGCCAUCAUAACUCACUAACAGGGAGAAGUAGCUAGUAGCAAUGUGCCUUGAUUGAUUAGAUAAA	0.28
UUGAUGAAGAAAUGACAUAUAUUAUCUUUGAAUAUCUACAAGGAAAGUUACCAACUUAUGUAGGGGUGAAAUUUGGAUAGGCGGUAUGCUCAAAGCAGCCAGCAAUGAGU	0.483
UCUGGGCCCUUCCACAAGGGUCCUCUGAACCAAGCCCCACUCCCUUGCUAGGGGUGAAAGCAUUACAGAGAGAUGGAGCCAUCUAUCCAAGAAGCCUUCACUCACCUUCA	0.194
CUUCUUUCUUGUUUGGAGUUUUCUGUUGGAACCGCCGGCGUUGGCUCCGAAGACUUAGCGACGCCACUGGCGGCACCUUCUCCUGCGCCCAGUGAUGUUUCCACGGUGCC	0.279
ACAUCUGUUACCUUGAAAAACAUUGAAGAAAGUACUGAAGUGUGCAUGGAGGUGGUUUAAGCAUAAUACUUAACCCAAGAAAGAGUGUAAGUGGACACAAGCUGUGCCUG	1.08
CGUUUUCUUGAUAAUUGUAAGCUUGAGAGUGUUUGUGGAAGAACUUACUUUCUUCUUAUGUAUACAUAAUUAAAUGAAAAGUCUUCAUAGGAGUUUGACAAAAUGAAUUG	0.922

Mixed results
Substance	target	test	system	setting	scale	measurement	value
PhoQ, residues 284 288 289 292 302 303 GLASVI	PhoP, residues 12 14 15 18 19 NQCAL (Escherichia coli, UniProt P23836)	Sort-seq, measured: YFP reporter	E. coli	PhoQ-PhoP variant library, together with: 10 µM Mg2+	reference: high Mg2+ state, higher = stronger signaling	fold induction	12.7

Repeated from above (set 3):
Strand	log fluorescence [z-score]
GACGATCTCAAACTGGAGACGTGCTAG	-0.09
TATCCTATCAGTTTAATATCGTGCTAG	1.11
GACGATATCGGGTAGCGAGACGTGCTA	-0.537
TTAGGACTGGACTTTCGGTGAGTGCTA	-0.543
GACGGTTTCGGTTCCGGGAGGTGCTAG	13
TTAGGTATCGATCTCGGTTAGTGCTAG	1.59
TTAGGTTTCTACTATCGGTTAGTGCTA	1.82
GACGAACTGAGTTGCGAGACGTGCTAG	-0.57
GACGATCTGAGTATCGAGACGTGCTAG	0.105
GACGATTTCGGGACAGGAGACGTGCTA	0.23
TTAGGTATCGACTACCGGTTAGTGCTA	0.348
